Measured values of several laboratories.
Numbered parts are unrelated; each lists some results of a single study. Substitutions count along the parent as printed.

Series 1 — method: protein binding microarray; molecule type: double-stranded DNA, one strand shown; matrix: in vitro; concentration: not given; reference: not given; direction: higher = stronger binding; quantity: E-score
Target: Histone acetyltransferase KAT6A, winged helix 2, GST fusion (KAT6A, Homo sapiens, UniProt Q92794, residues 85-181)
Notes: 8-mer, flanks averaged, mean of 2 arrays, mostly near background
Target sequence (chain): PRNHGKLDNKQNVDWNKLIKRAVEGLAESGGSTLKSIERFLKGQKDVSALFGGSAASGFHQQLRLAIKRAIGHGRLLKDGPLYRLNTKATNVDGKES
AAGCTTTC: 0.0931
TGAGTCAA: -0.0875
ATAGAGAG: -0.167
CACAAGAG: 0.0241
AAGGATCC: -0.145
CAGGAATG: -0.0439
AATATTAT: 0.0602
AAAAGGGC: 0.0805
AATAGCAG: -0.0984
AACCTTGG: -0.126
CGGGTCAC: 0.044
CCACGCGG: 0.181
ACTGACCA: -0.00438
AAGTCCGT: -0.209
AATCGGCC: -0.00308
AACCATTA: -0.0286
CCATATCC: -0.142
ACTCGGGG: 0.179
GCCTTCCA: -0.0788
AACAAATT: -0.00769
AGCGCCCG: 0.294
CGGTCCGA: 0.0977
TCTTAAGA: 0.0454
GCTGGTAA: -0.0679
GCGTTATA: -0.0248

Series 2 — target: CCNA1, cyclin fold, Cln2 fusion (human); method: yeast growth competition, sequencing; matrix: yeast; notes: weak parent motif; reference: not given; direction: higher = stronger binding; quantity: normalised enrichment score
Starting sequence: PKN2 docking peptide (human); VSAVRKLDFSDTM; partner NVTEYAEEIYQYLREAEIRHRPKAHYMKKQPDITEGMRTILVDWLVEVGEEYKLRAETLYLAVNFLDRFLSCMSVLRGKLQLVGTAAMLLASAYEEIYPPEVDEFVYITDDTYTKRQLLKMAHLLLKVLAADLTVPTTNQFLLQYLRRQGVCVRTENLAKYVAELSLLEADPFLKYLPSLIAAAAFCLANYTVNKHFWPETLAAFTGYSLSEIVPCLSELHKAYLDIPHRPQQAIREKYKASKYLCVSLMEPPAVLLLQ
VSAWRKLDFSDTM [V4W]: 0.391
VSAVRKLDFSNTM [D11N]: 0.623
VSAVRKLDFSDHM [T12H]: 0.796
VSAVRKLDFSMTM [D11M]: 0.49
VSHVRKLDFSDTM [A3H]: 0.922
VSAVRKEDFSDTM [L7E]: 0.412
VRAVRKLDFSDTM [S2R]: 1.15
VSAVRKLDTSDTM [F9T]: 0.14
VSAVSKLDFSDTM [R5S]: 0.113
VCAVRKLDFSDTM [S2C]: 0.845
VAAVRKLDFSDTM [S2A]: 0.617
VSAVRKLAFSDTM [D8A]: 0.63
VSLVRKLDFSDTM [A3L]: 0.351
VFAVRKLDFSDTM [S2F]: 0.13
VSFVRKLDFSDTM [A3F]: 0.291
VSAVRKHDFSDTM [L7H]: 0.241
VSAPRKLDFSDTM [V4P]: 0.418
VSAVNKLDFSDTM [R5N]: -0.135
VSAVRKLDFSGTM [D11G]: 0.646

Series 3 — method: DHFR PCA, deep sequencing; matrix: yeast; together with: (+)-ABA 4.8 µM; reference: wild-type fitted maximum; direction: higher = stronger binding; quantity: relative binding score
Target: ABI1, truncated, D143A, DHFR fusion (Arabidopsis thaliana)
Notes: methotrexate growth selection, single substitutions
Starting sequence: PYL1, truncated, DHFR fusion (Arabidopsis thaliana); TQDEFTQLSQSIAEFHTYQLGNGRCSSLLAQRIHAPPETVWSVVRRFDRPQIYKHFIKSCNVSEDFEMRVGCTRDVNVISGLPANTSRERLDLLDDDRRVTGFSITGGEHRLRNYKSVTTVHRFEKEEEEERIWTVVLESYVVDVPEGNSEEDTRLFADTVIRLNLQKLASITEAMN; partner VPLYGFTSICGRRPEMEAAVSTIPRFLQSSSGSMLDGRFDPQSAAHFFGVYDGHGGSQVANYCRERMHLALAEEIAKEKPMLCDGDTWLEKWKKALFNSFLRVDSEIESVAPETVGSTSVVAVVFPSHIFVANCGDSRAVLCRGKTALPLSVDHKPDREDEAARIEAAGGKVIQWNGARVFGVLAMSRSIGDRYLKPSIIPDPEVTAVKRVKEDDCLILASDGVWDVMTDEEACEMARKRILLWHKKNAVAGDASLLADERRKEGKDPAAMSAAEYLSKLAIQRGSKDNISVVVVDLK
D97T: 76.4%
Q10M: 59.6%
D153G: -6.02%
A13Q: 75.5%
L29Y: -3.68%
S9P: 23.6%
H122D: 16.5%
S80W: 33.1%
E131R: 76.1%
V142W: 0.855%
V70K: 38.2%

Series 4 — method: RNA Bind-n-Seq; molecule type: RNA; matrix: in vitro; concentration: 200 nM; notes: whole 134-nt RNA, ends assumed; together with: 150 mM LiCl; reference: input library; direction: higher = stronger binding; quantity: log2 enrichment; all molecules: 7-deaza-guanosine replaces G
Target: Ras GTPase-activating protein-binding protein 1, full length (G3BP1, Homo sapiens, UniProt Q13283)
UniProt Q13283, sequence (whole entry, looked up): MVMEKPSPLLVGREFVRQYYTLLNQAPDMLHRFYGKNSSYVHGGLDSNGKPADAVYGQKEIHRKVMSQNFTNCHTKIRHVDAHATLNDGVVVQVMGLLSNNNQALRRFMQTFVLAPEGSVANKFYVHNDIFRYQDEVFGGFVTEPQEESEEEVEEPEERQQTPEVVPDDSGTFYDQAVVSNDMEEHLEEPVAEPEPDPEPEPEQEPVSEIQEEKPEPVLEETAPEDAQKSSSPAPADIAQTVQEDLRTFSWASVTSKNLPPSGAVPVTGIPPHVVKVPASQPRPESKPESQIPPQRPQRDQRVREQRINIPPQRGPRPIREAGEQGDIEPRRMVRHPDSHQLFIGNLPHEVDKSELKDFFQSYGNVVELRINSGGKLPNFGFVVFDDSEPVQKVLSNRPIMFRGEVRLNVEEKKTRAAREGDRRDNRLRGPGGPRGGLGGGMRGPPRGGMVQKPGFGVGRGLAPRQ
All sequences stand within: GGGAGUUCUACAGUCCGACGAUC … UGGAAUUCUCGGGUGUCAAGG
UUCCUCAAGUCCUGUGCUACACAUCGUAUGUACCGAAUCGGAGGAGGAGGAAAGUAUUAUGUUACGCCGUUCGGAUCUGCACUUCCAGCA: -2.04
CCUCAAGUCCUGUGCUACACAUCGUAUGUACCGAAUCGGAAAGGUUUGGUGGAAAGUAUUAUGUUACGCCGUUCGGAUCUGCACUUCCAG: -0.492
GUCCUGUGCUACACAUCGUAUGUACCGAAUCGGGUUUUUUGGUUUUUUGGUUUUUUGGGAAAGUAUUAUGUUACGCCGUUCGGAUCUGCA: -1.02
UCAAGUCCUGUGCUACACAUCGUAUGUACCGAAUCGGGAAAGGAAAGGAAAGGGAAAGUAUUAUGUUACGCCGUUCGGAUCUGCACUUCC: -0.281
UAAGGAUUCUAUCUGCUUACUGCUACAGACCUAUGUGUUAAGGAAUUCUUCUCCUCCUCCUUGCGUAGAAGUUGAUCAGCACUGUGGUCA: -0.188
CCUCAAGUCCUGUGCUACACAUCGUAUGUACCGAAUCGGUGGAAAAAGGAGGAAAGUAUUAUGUUACGCCGUUCGGAUCUGCACUUCCAG: 0.209
CACAGACAACACGCACCCACACAGACACAGAGGGAAGGGGUUGCGAUGGGGACAGGGUGCACAGCAGGGCGGGGUAGGACCCCAGCCCCU: -1.62
AGUCCUGUGCUACACAUCGUAUGUACCGAAUCAAAUUUAAACCCCCCCAAAUUUAAAAAAGUAUUAUGUUACGCCGUUCGGAUCUGCACU: 1.13

Series 5 — method: protein-binding microarray; molecule type: double-stranded DNA, one strand shown; matrix: in vitro; concentration: not given; direction: higher = stronger binding; quantity: E-score
Target: Transcriptional repressor CTCF (CTCF, Homo sapiens, UniProt P49711, residues 1-727, full length assumed)
UniProt P49711, sequence (whole entry, looked up): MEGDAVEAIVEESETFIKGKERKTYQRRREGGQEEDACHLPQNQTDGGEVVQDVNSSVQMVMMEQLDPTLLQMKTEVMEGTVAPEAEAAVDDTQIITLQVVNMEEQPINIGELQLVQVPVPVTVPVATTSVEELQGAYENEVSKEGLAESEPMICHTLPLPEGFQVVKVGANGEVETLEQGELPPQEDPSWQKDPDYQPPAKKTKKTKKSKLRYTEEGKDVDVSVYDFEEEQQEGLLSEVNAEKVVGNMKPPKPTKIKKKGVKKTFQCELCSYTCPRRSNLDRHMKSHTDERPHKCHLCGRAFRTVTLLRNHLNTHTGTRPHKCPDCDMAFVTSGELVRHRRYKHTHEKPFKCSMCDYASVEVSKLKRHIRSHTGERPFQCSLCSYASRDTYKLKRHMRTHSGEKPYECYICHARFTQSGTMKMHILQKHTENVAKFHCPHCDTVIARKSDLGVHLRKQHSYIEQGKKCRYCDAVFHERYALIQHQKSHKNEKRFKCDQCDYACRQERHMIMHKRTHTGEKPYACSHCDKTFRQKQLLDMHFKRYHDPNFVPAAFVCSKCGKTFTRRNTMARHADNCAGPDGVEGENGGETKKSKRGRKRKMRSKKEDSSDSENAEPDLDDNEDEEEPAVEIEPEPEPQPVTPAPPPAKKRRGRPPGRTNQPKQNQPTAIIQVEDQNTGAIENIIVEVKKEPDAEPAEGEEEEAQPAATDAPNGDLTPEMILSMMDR
Notes: k-mer, scored over probes, only values ≥0.25
GTAAAGTA: 0.259
ATATTACG: 0.263
ACATTATA: 0.336
AGGGGAGG: 0.316
ATATAAAA: 0.344
AAGTATAA: 0.305
ATGTAATC: 0.251
TAGCGCGA: 0.272
TAGTTATA: 0.262
ATAACGTA: 0.271
ATAATGAT: 0.308
ATGTACAT: 0.261
TAAAAGTA: 0.252

Some of these lines once more (series 5):
AGGGGAGG: 0.316
ATATAAAA: 0.344
AAGTATAA: 0.305
ATGTAATC: 0.251
